Assay results of several laboratories.
A part holds a random share of what one study measured. Substitutions count along the parent as printed.

Block 1
Target: CREB3L1, bZIP domain (human)
Method: DHFR protein complementation
Medium: yeast
Setting: single substitutions, most at no-binding floor
Reference: wild-type JUN-FOS pair
Direction: higher = stronger binding
Parent: JUN, bZIP domain (human); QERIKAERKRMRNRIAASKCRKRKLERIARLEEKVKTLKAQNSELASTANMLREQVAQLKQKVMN; partner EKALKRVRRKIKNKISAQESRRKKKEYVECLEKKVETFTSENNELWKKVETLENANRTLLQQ
| Variant | binding fitness |
| --- | --- |
| L45V | -1.51 natural log |
| R53H | -1.54 natural log |
| K36F | -1.52 natural log |
| V35W | -1.44 natural log |
| N42T | -1.46 natural log |
| K39H | -1.54 natural log |
| A40K | -1.54 natural log |
| N42M | -1.48 natural log |

Block 2
Target: CCNA1, cyclin fold, Cln2 fusion (human)
Method: yeast growth competition, sequencing
Medium: yeast
Setting: weak parent motif
Reference: not given
Direction: higher = stronger binding
Parent: PKMYT1 docking peptide (human); SFEPRNLLSLFED; partner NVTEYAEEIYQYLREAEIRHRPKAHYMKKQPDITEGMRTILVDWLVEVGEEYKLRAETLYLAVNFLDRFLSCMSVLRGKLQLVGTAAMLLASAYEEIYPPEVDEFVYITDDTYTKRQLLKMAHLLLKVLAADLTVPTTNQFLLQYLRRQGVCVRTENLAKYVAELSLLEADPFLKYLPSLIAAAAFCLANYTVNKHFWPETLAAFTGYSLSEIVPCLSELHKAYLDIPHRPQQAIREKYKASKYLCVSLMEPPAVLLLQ
| Variant | normalised enrichment score |
| --- | --- |
| SFEPENLLSLFED [R5E] | 0.621 |
| SFEPRNLLSLWED [F11W] | 0.5 |
| SFEPRNLLSLFWD [E12W] | -0.0277 |
| SFELRNLLSLFED [P4L] | 0.00531 |
| SFEPRNLESLFED [L8E] | -1.12 |
| SFEPRNLGSLFED [L8G] | 0.279 |
| SFEPRNPLSLFED [L7P] | 0.119 |

Block 3
Target: Histone acetyltransferase KAT6A, both winged helices, GST fusion (KAT6A, Homo sapiens, UniProt Q92794, residues 1-181)
Method: protein binding microarray
Form: double-stranded DNA, one strand shown
Medium: in vitro
Tested at: not given
Setting: 8-mer, flanks averaged, mean of 2 arrays, mostly near background
Reference: not given
Direction: higher = stronger binding
Residues (chain): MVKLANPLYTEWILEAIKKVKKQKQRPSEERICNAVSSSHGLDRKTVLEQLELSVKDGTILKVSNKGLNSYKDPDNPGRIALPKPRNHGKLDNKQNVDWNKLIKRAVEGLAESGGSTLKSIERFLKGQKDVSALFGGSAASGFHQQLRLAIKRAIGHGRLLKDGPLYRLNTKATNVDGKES
| Strand | E-score |
| --- | --- |
| GATAATGA | -0.088 |
| TGTAATAA | -0.0266 |
| ATGAACCA | -0.00609 |
| AGTTTCCG | 0.245 |
| AGAATAGC | 0.0183 |
| CCTCCCGC | 0.221 |
| CATGTACA | -0.0688 |
| ATGTCACG | 0.0591 |
| AAGCAGGA | -0.0791 |

Single results of other studies
| Substance | target | assay | system | conditions | scale | quantity | result |
| --- | --- | --- | --- | --- | --- | --- | --- |
| PhoQ, residues 284 288 289 292 302 303 TVTVVA | PhoP, residues 12 14 15 18 19 AGCRL (Escherichia coli, UniProt P23836) | Sort-seq, refers to: YFP reporter | E. coli | PhoQ-PhoP variant library, with: 10 µM Mg2+ | reference: high Mg2+ state, higher = stronger signaling | fold induction | 15.3 |
